Published values pooled from the literature.
Numbered parts are unrelated; each lists some results of a single study. Values joined by “and” are separate records of one study, mostly repeats; a detail may differ.

Study 1 — species: mouse; medium: EL4 tumour; dose: dose not given
Structure (SMILES): CC(=O)N[C@@H](Cc1c[nH]c2ccccc12)C(=O)N[C@@H](CCC(=O)C=[N+]=[N-])C(=O)OC(C)C
measured	normalized intensity
adenine	-0.339 and -0.464 and -0.389 and -0.373 and -0.336 and -0.264
glutamate	-0.0662 and 0.0482 and 0.0678 and -0.0135 and -0.155 and 0.0394
kynurenine	0.0811 and 0.13 and 0.0656 and -0.179 and -0.219 and 0.143
succinate	-0.0665 and -0.23 and -0.0795 and -0.228 and -0.317 and -0.0274
adenosine	-0.0221 and -0.139 and -0.18 and -0.0803 and -0.146 and -0.0263

Study 2 — species: human; medium: microsomes or S9; concentration: 2 µM; time: 0.5 h
SMILES	remaining compound [%]
NCCN1CCOC(CC(=O)Nc2cc(Cl)cc(Cl)c2)C1=O (centres unmarked)	84.6
COc1ccc(-c2nc(-c3ccc(OC)cc3)c(-c3ccc(OC)cc3)s2)cc1	86.1
Cc1nc(N2CCN(c3ccccn3)CC2)nc2c1C(=O)CC(c1cccs1)C2 (centres unmarked)	18.4
COc1ccc(-c2nnc3c4ccccc4c(Cl)nn23)cc1	0.414
CC(C)Oc1cc(N2C=NN(C)CC2)ccc1[N+](=O)[O-]	21
Cc1cc2nnc(SC3CC(C)OC3=O)n2c(C)n1 (centres unmarked)	77
CC1(C)CC(NC(=O)CCc2nc3ncc(Br)cc3[nH]2)CC(C)(C)N1	62.9
COc1cc(=O)[nH]cc1C(=O)N1CCOC(C)(c2ccccc2)C1 (centres unmarked)	96.5
Cc1cc(C#N)cc(NC(=O)C(F)(F)F)c1NC(=O)c1cc(Br)nn1-c1ncccc1Cl	33
CN(CC#N)C(=O)C1=C(c2ccccc2)OCCS1	59.7
CNCc1cccc(Br)c1OCCS(C)(=O)=O	64.6
O=C(NC1CCS(=O)(=O)C1)c1ccc(Br)cc1 (centres unmarked)	> 99
NC(N)=NC(=O)c1coc(-c2cc(F)cc(F)c2)c1	> 99.9

Study 3 — method: competition with immobilised ligand; concentration: 1 µM
Structure (SMILES): Cc1nc(Cc2cccc(C(F)(F)F)c2)sc1-c1ccc(C(N)=O)nc1
target	effect on	remaining binding [%]
GRK1 (Homo sapiens, UniProt Q15835)	cell-free assay	98
WNK1 (Homo sapiens, UniProt Q9H4A3)	cell-free assay	100
Tyrosine-protein kinase ABL1, phosphorylated (ABL1, Homo sapiens, UniProt P00519, H396P)	cell-free assay	96
PIK3C2G (Homo sapiens, UniProt O75747)	cell-free assay	93
FLT3 (Homo sapiens, UniProt P36888, F691L/ITD)	cell-free assay	100
NEK2 (Homo sapiens, UniProt P51955)	cell-free assay	100
EPHA4 (Homo sapiens, UniProt P54764)	cell-free assay	100
TESK1 (Homo sapiens, UniProt Q15569)	cell-free assay	88
PRKAA1 (Homo sapiens, UniProt Q13131)	cell-free assay	100
PRKCI (Homo sapiens, UniProt P41743)	cell-free assay	100
FGR (Homo sapiens, UniProt P09769)	cell-free assay	100
MYLK3 (Homo sapiens, UniProt Q32MK0)	cell-free assay	81
ACVRL1 (Homo sapiens, UniProt P37023)	binding	99
BRSK2 (Homo sapiens, UniProt Q8IWQ3)	cell-free assay	72
Tyrosine-protein kinase ABL1, non-phosphorylated (ABL1, Homo sapiens, UniProt P00519, F317I)	binding	100
CAMK1G (Homo sapiens, UniProt Q96NX5)	cell-free assay	99
MAP3K20 (Homo sapiens, UniProt Q9NYL2)	cell-free assay	73
FRK (Homo sapiens, UniProt P42685)	cell-free assay	100
ZAP70 (Homo sapiens, UniProt P43403)	cell-free assay	93
MUSK (Homo sapiens, UniProt O15146)	cell-free assay	89
STK17A (Homo sapiens, UniProt Q9UEE5)	cell-free assay	82
PIK3CA (Homo sapiens, UniProt P42336, I800L)	cell-free assay	56
PLK4 (Homo sapiens, UniProt O00444)	cell-free assay	90
ALK (Homo sapiens, UniProt Q9UM73, L1196M)	cell-free assay	100
Mast/stem cell growth factor receptor Kit, autoinhibited (KIT, Homo sapiens, UniProt P10721)	cell-free assay	100

Study 4 — concentration: 50 µM
Target: Bromodomain-containing protein 4, BD1 (BRD4, Homo sapiens, UniProt O60885)
Structure (SMILES)	inhibition
COCCNCc1ccc(-c2cc3nccc(Oc4ccc(NC(=S)NC(=O)Cc5ccc(F)cc5)cc4F)c3s2)nc1	38.8%
CC(C)[C@H](CO)Nc1nc(Nc2cc(N)cc(Cl)c2)c2ncn(C(C)C)c2n1	26.6%
N#CC1(c2ccc(NC(=O)c3cccnc3NCc3ccncc3)cc2)CCCC1	13.8%
Clc1ccc(Nc2nnc(Cc3ccncc3)c3ccccc23)cc1	20.6%
CS(=O)(=O)N1CCN(Cc2cc3nc(-c4cccc5[nH]ncc45)nc(N4CCOCC4)c3s2)CC1	23.5%
CC(C)(C)c1cc(NC(=O)Nc2ccc(-c3cn4c(n3)sc3cc(OCCN5CCOCC5)ccc34)cc2)no1	57.6%
COc1ncc(-c2ccc3nccc(-c4ccnnc4)c3c2)cc1NS(=O)(=O)c1ccc(F)cc1F	13.6%
O=C(Nc1ccc2[nH]nc(-c3ccncc3)c2c1)[C@@H]1CCN(CC(=O)N2CCN(c3ccc(-c4ncccn4)cc3)CC2)C1	85.5%
Cc1c(Cn2c(C)nc3c(C(=O)O)cc(N4CCOCC4)cc32)cccc1C(F)(F)F	99.7%
COc1cc2c(Oc3ccc4[nH]c(C)cc4c3F)ncnc2cc1OCCCN1CCCC1	37.8%

A few entries again (study 3):
target	effect on	remaining binding [%]
Tyrosine-protein kinase ABL1, phosphorylated (ABL1, Homo sapiens, UniProt P00519, H396P)	cell-free assay	96
ZAP70 (Homo sapiens, UniProt P43403)	cell-free assay	93
CAMK1G (Homo sapiens, UniProt Q96NX5)	cell-free assay	99
EPHA4 (Homo sapiens, UniProt P54764)	cell-free assay	100
PIK3C2G (Homo sapiens, UniProt O75747)	cell-free assay	93
